Results pooled from the literature.
Every numbered part comes from another study and shows a few of its results, in no order.

Set 1 — method: protein binding microarray; form: double-stranded DNA, one strand shown; medium: in vitro; tested at: not given; reference: not given; reading: higher = stronger binding
Target: Histone acetyltransferase KAT6A, winged helix 1, GST fusion (KAT6A, Homo sapiens, UniProt Q92794, residues 1-85)
Notes: 8-mer, flanks averaged, mean of 2 arrays, mostly near background
Residues (chain): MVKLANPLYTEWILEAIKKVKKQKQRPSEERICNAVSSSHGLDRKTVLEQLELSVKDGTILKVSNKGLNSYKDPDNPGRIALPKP
| Oligonucleotide | E-score |
| --- | --- |
| AATTTGAC | -0.234 |
| ACTGAAGG | -0.0528 |
| CCCTCAAC | -0.116 |
| ATCTGAGG | -0.178 |
| AAACAAAG | -0.158 |
| GCAACAGA | -0.0478 |
| TCATAGAA | -0.133 |
| AAGGTCTA | -0.166 |
| ACTGCAGT | -0.17 |
| ACCCGAAA | 0.0532 |
| AAAAGTTC | -0.161 |
| ACATACCC | -0.131 |
| GCCGGCAC | 0.368 |
| AGCGTCGA | -0.0101 |
| ATGTTGAG | -0.0114 |
| CGAATATA | -0.119 |
| CCTTCGGC | 0.151 |
| CCCCATGA | -0.369 |
| AGCTAAGA | -0.211 |
| CACGAAAC | 0.0126 |
| AACTGTTG | -0.153 |
| ACTTAAAG | -0.147 |
| AGCTCTGA | -0.0385 |
| CACATGTA | -0.182 |
| ATTTCTGG | -0.343 |

Set 2 — method: protein-binding microarray; form: double-stranded DNA, one strand shown; medium: in vitro; tested at: 250 nM; notes: 60-bp whole probe; added: salmon DNA 0.4 mg/ml; reference: random background probes; reading: higher = stronger binding
Target: Interferon regulatory factor 7, full length, phosphomimetic (IRF7, Homo sapiens, UniProt Q92985, residues 1-503, S101K/S471D/S472D/S475D/S476D/S477D/S483D/S484D/S487D)
Sequence of UniProt Q92985 (whole entry, unmodified, looked up): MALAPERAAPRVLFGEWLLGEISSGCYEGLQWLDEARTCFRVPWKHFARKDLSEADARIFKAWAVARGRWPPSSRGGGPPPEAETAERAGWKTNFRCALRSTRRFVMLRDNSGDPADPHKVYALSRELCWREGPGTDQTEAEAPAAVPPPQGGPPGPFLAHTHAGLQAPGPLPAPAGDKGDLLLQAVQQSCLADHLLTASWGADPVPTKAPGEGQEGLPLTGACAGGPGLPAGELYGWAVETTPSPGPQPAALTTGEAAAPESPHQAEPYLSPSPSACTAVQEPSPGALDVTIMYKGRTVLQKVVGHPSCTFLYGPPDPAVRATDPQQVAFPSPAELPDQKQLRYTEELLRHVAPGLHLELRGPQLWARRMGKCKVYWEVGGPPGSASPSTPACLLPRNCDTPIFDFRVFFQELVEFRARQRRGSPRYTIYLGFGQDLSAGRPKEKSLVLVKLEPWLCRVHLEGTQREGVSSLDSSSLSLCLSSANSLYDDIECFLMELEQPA
Constant ends, left off below: GCCTAGCAC … GTGCTAGGTCTTGATTCGCTTGACGCTGCTG
| Oligonucleotide | log fluorescence |
| --- | --- |
| CTAGGTCTCGGTATCGGTTA | 3.62 z-score |
| TCAGCTTCCTCTCTGCCACT | 0.253 z-score |
| TCATTTTTCATCATTGCACT | 0.88 z-score |
| TCATTTCTCTTTCACTAACT | 3.23 z-score |
| TCAGCTTTCCTGATGACACT | 0.304 z-score |
| TTGGGTCTGGGTATTTTTCT | -0.9 z-score |
| GACGAACTGATTTTCGAGAC | 0.576 z-score |
| GACGAACTGAGACTGGAGTC | -0.135 z-score |
| GACGATTTCAGTTTCGAGGC | 3.24 z-score |
| TAAAACATCATTTTTCCCTC | 0.133 z-score |
| TCATTTTTTTTTTTTGTACT | 0.686 z-score |
| TTAGGTTCGCTTTTCCTTTA | 8.97 z-score |
| TTAGGTCTTGGTTTCGGTTA | 8.74 z-score |
| GTGAAATAAGGGAGGCCTAG | -0.509 z-score |

Set 3 — method: RNA Bind-n-Seq; form: RNA; medium: in vitro; tested at: 365 nM; reference: no-protein control; reading: higher = stronger binding
Target: RNA binding protein fox-1 homolog 2, RRM domain, GST-SBP tag (RBFOX2, Homo sapiens, UniProt O43251-10, residues 100-194)
Notes: natural RNA segment, single round, ends assumed
Residues (chain): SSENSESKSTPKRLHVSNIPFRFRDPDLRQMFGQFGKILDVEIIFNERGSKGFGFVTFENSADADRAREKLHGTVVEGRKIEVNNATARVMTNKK
| Oligonucleotide | RBNS enrichment (R) |
| --- | --- |
| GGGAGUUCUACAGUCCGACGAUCCUGUCACAUCUGUGUCAUGUUGUUAUUUGAAGCAUCAGACUUUAUUACUAUGCUAGGUCCUCACUACUGCCCCCUGCAGGCUGGGGAAAGGGAACUUUUUGUCUACGCUAUGGAAUUCUCGGGUGCCAA | 0.346 |
| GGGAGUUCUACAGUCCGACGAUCCUUGUGCACAGAGUAACUUUUCUAGCUGCCCCUUUCUGUAAUAGUGAAAGUUGGUAUUUAACAUUUAUUCAUUUUUAAAAUAUUUGGAAGGUCUGAGCUUGUGAAAAGAAUGGAAUUCUCGGGUGCCAA | 0.387 |
| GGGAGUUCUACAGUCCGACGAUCUACUGUUGGAGAACAAGAAUGCUACUGUAUUUUACAUCUUUAUUUCUUGGUGAAACAAAAGUUUUAAAAGUAGUUUUAACAACUUUACACUGGAAUGAUUUAGCUUUGUUUGGAAUUCUCGGGUGCCAA | 0.449 |
| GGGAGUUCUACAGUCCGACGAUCGGCCCCAUGAAGUGGGUGCCCCACUCACUUCUCUGAGAUCGAACGGACUGUGAAUCCGCUCUUUGUCGGAAGCUGAGCAAGCUGUGGCUUUUUUCCAACUCCGUGUGACGUGGAAUUCUCGGGUGCCAA | 0.347 |
| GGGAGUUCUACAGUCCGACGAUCGCAGGUUAGACUUUGGUCUUCACUGCUUAUAGCUGCAUUGGAGGCCAACGUAGCUGAUGCUCAGGGUCAGGCCUCGCCCCUUCGCCGCAGGUCUCAGGAUCGGGGAUAACUGGAAUUCUCGGGUGCCAA | 0.264 |
| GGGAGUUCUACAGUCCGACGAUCUCUCAGCUGAGCUGUGAGGGCUUCCAGGGAAAAUGGAACAAAAUGGUGUUCUUAGGUAAUGGGUUGUAGAUACUGAGUCUUCCUUUCCUUUUCUGACCCUUCUCGAGGACUGGAAUUCUCGGGUGCCAA | 0.722 |
| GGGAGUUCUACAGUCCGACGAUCGUGCACCUGUUUGUUCUGCUAGGUUUAGGUUGAGCUCUGGAGUUGUUUGAAGUCUGCGAUGAAAAAUAAUUUUUAAAAGUAUUAAGAACACUAAAAUGGAUUAGAAUUAUUGGAAUUCUCGGGUGCCAA | 1.29 |
| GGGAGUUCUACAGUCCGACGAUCUAAGACACCUUGUAGUAUUUUGGGAGCAAAAAAAUUAUUUUCUCUUAACAAGACUUUUUGUACUGAAAACAAUUUUUUUGAAUCUUUCGUAGCCUAAAAGACAAUUUUCCUGGAAUUCUCGGGUGCCAA | 0.543 |
| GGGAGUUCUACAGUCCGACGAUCUGAGGUGAAUUUUGUUUGUCAUACAUGGAACCAUUUUAGUCCCAUUUGACUCACUUCAGACCAUCUUCCACACACUAUGUCUGUGCUUGGAGAGGGGAGGUGGCUCUCCAUGGAAUUCUCGGGUGCCAA | 0.41 |
| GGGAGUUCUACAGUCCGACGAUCGGAGAGCGGUGUUCUUCACUCGACUCCACCCUGCUGGACACAGGAAAAUUUCAAUUGCUAAAAAAAAAUCAAAGCACUCAUUCACUUGGGGGGAGGAUCCUACGCAGGGGUGGAAUUCUCGGGUGCCAA | 0.612 |
| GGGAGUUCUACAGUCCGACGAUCUGUGGGUGGACUCUAAGUUGGCAAACCAAGGAUUUAGGGAGUGGCCUAGUCAACAUAAUUCUUUAAGAAAGGAAGGAGAAAAGCUGUGUCCAUAGUGACUGUUUGAAGCUUGGAAUUCUCGGGUGCCAA | 0.911 |
| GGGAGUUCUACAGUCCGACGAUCUGGCCUCUCUCGCUGCCAGGGCCCUUGUCAGAGCAGCCAGGCUGGACAGACGGCCUCCCUCCUCUCCAUCUGACCGGCACCUGCUGCUUCGGGGCUUAGGCCACCGCUCCUGGAAUUCUCGGGUGCCAA | 0.362 |

Set 4 — method: RNAcompete; form: RNA; medium: in vitro; tested at: 20 nM; notes: 7-mer, probes averaged, single round; reference: mean of 7-mers; reading: higher = stronger binding
Target: PABPC1L2, full length, GST fusion (mouse, UniProt A0ABA7IW68)
Construct (chain): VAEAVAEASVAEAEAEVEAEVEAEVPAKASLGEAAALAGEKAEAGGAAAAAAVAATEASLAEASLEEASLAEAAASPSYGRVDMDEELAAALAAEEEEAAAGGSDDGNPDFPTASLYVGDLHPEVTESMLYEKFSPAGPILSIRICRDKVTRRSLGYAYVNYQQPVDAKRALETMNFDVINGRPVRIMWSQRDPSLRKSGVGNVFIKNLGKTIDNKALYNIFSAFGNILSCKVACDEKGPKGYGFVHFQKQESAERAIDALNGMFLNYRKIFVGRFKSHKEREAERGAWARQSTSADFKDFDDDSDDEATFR
| Oligonucleotide | 7-mer Z-score |
| --- | --- |
| UGCUUUG | -0.338 |
| GAGCCGU | -0.432 |
| AUCUUGA | -0.173 |
| GAAGCCA | -0.0772 |
| CAAGUUA | -0.0917 |
| GCUACGU | -0.195 |
| CCGGGUC | -0.0464 |
| GCUUGUC | -0.378 |
| CGCUCCU | -0.228 |
| UCAAUAA | 0.379 |
| AACCCGC | -0.296 |
| UCCCACA | -0.358 |
| AUACCUG | -0.325 |
| CUCACUU | -0.226 |
| GGUCUUC | -0.322 |
| CAAAAAU | 20 |
| UAGUGGA | -0.0464 |
| AGUUCUU | -0.275 |
| AUGCGGU | 0.000733 |

Set 5 — method: RNA Bind-n-Seq; form: RNA; medium: in vitro; tested at: 200 nM; notes: whole 134-nt RNA, ends assumed; added: 150 mM KCl; reference: input library; reading: higher = stronger binding
Target: Fragile X messenger ribonucleoprotein 1, C-terminal low-complexity region (Fmr1, Mus musculus, UniProt P35922)
| Oligonucleotide | log2 enrichment |
| --- | --- |
| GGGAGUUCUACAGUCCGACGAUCAAGUCCUGUGCUACACAUCGUAUGUACCGAAUCGGAAAAGGAAAAGGGGAAAAGGGAAAGUAUUAUGUUACGCCGUUCGGAUCUGCACUUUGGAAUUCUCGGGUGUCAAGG | -0.467 |
| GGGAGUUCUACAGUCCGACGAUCUUCCUCAAGUCCUGUGCUACACAUCGUAUGUACCGAAUCGGCGGCGGCGGGAAAGUAUUAUGUUACGCCGUUCGGAUCUGCACUUCCAGCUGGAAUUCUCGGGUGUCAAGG | -0.0183 |
| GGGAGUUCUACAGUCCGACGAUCAGUCCUGUGCUACACAUCGUAUGUACCGAAUCGGAAAAAGGGAAAAAGGAAAAAGGGGAAAGUAUUAUGUUACGCCGUUCGGAUCUGCACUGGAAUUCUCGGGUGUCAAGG | -0.328 |
| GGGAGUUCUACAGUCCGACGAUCUGGCCCUGGUGGCAUGCGGGGAGGAAAAGGUGGCCUCAUGGAUCGUGGUGGUCCCGGUGGAAUGUUCAGAGGUGGCCGUGGUGGAGACAGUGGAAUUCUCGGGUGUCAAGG | -0.0774 |
| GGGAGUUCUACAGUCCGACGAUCACCAUGCAGGUGGGCAUCUUUGGGAAGUGGGGCAAGGGGGGGAUAGGGAGGGGGGUAACCCUUUGGGAACAGGUGGUCCCAGGUCGUUUCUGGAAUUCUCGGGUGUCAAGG | 0.673 |
| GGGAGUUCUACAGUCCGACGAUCCUGUGCUACACAUCGUAUGUACCGAAUCGGGUUUUUUUGGUUUUUUUGGGUUUUUUUGGGGAAAGUAUUAUGUUACGCCGUUCGGAUCUGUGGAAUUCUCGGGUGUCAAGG | -0.822 |
| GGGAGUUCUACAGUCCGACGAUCUGGGAGGUGGAUUUUGUUUAUUUUUUUAGCUCAUUUCCAAGGGUGGGAAUUUUUUUUUAAUAUGUGUCAUGAAUAAAGUUGUUUUUGAAAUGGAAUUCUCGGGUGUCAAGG | 0.0508 |
| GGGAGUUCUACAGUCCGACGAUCUCCUCAAGUCCUGUGCUACACAUCGUAUGUACCGAAUCGGGGUGGUGGUGGAAAGUAUUAUGUUACGCCGUUCGGAUCUGCACUUCCAGCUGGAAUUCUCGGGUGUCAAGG | -0.0102 |
| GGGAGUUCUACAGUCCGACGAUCCAAGUCCUGUGCUACACAUCGUAUGUACCGAAUCGGGAAAAGGAAAAGGAAAAGGAAAGUAUUAUGUUACGCCGUUCGGAUCUGCACUUCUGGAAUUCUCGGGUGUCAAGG | -0.643 |
| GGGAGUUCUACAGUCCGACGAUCUGGGAGGUGGAUUUUGUUUAUUUUUGUAGCUCAUUUCCAGGGGUGGGAAUUUUUUUUUAAUAUGUGUCAUGAAUAAAGUUGUUUUUGAAAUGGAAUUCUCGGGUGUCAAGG | 0.416 |
| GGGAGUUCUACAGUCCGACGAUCACCAUGCAGGUGGGCAUCUUUGGGAAGUGGGGCAAGGGGGGGAUAGGGAGGGGGGUAACACUUUGGGGACAGGUGGUCCCAGGUCGUUUCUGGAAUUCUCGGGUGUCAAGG | 0.731 |
